Experimental data gathered from unrelated publications.
Every numbered part comes from another study and shows a few of its results, in no order. Substitutions count along the parent as printed.

Series 1
Target: TAR DNA-binding protein 43, full length, His tag (TARDBP, Homo sapiens, UniProt Q13148, residues 1-414)
Technique: RNA Bind-n-Seq
Molecule type: RNA
Medium: in vitro
Concentration: 20 nM
Setting: 6-mer, flanks averaged, single round
Added: 150 mM KCl
Relative to: input library
Direction: higher = stronger binding
Sequence	6-mer enrichment (R)
AUUGCC	0.618
CCGUUG	0.745
UCUAAA	0.592
CCGGUU	0.694
AAAGUA	0.65
AUGUUA	0.707
GCUCCG	0.823
GCGGGG	8.28
UGCGAG	1.56
CUUGGA	0.778
CAGGGG	4.3
CACCCG	0.754
AGUACG	0.919
UAGCAG	0.887
GAUCGA	0.832
GACAGG	1.96
GCAUUG	0.85
CCUUGU	0.715
AUGUAU	0.833
GAACCG	0.967
CUGAAC	0.64
AGCAUA	0.657
AAGCAU	0.65
CGAUUU	0.582
UCCAUC	0.561

Series 2
Target: RNA binding protein fox-1 homolog 2, RRM domain, GST-SBP tag (RBFOX2, Homo sapiens, UniProt O43251-10, residues 100-194)
Technique: RNA Bind-n-Seq
Molecule type: RNA
Medium: in vitro
Concentration: 365 nM
Setting: natural RNA segment, single round, ends assumed
Relative to: no-protein control
Direction: higher = stronger binding
All sequences stand within: GGGAGUUCUACAGUCCGACGAUC … UGGAAUUCUCGGGUGCCAA
Residues (chain): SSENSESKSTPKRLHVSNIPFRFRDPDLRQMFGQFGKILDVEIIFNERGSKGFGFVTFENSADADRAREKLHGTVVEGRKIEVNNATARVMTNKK
Sequence	RBNS enrichment (R)
CUUUAGACCCUGACACGUGGAUGUUCUUCUGCAGUCUUGUCUGCUAAGUUUUAAAUAAAGUCAUGAUCAGUGUGCAUUUGUGAUUACAUGUGUACUCAUUCUUUUCCCAA	1.77
UCUGAGCGCCUCCAUCCAAGGCCAGGUUCUCCGUUAGCUCCUGUGGCCCCACCCUGGGCCCUGGGCUGGAAUCAGGAAUAUUUUCCAAAGAGUGAUAGUCUUUUGCUUUU	0.196
UUUAAACUCAGGAAUGCACACCUAACUUGUGAAGCAGUAUUAAUGGAUCUGAAAGCAACAAUCGCCAGCCCCUACUGUCGUACCAGUAGAAACCUCAUCUUGGGUACAAG	2.15
GUGUGUUCCCUGUAACUGCCCCAUAGUGGGCAGCCCUGGAGGAACAAGGGGCUGGCUGUCCUGGGCUCCCUGACCCACUGAAGCUUCUCAGCACGUUCCUCCCUGGAGAG	10.7
GAGCCCCAUAGCGAGCUUGCCUUUUCUGACUGGGUCUUCUGGUCCCCCCUACACCAGCCAUAGGCCUGUUCUUUUUCUUCCUUCUGAAAACUGUGACCAGUUCAAAUUAU	0.327
UUUUAGCCCCAAAUCUCUCAUAUUCGCUAGUGUUUAAAAGGCUAAGAAUAGUGGGGCCCAGCCGAUGUGGUAGGUGAUAAAGAGGCAUCUUUUCUAGAGACACAUUGGAC	0.241
ACCAGUAGGUAGUGUCAAGCCAGAGAUUCGGGGCAGUAGAUAAAUGUUCAUUUUACUGAUGCACUUUAGUUUUUGGUCUGUUACCUGUUUUCCAGAAAUUUGUGGCCUUU	0.57
GAAAGAUUAAUCACACAAUAGAGGCAUAUGCGCUGUCAUUUUUCCUUUUUUUAAUUGUUAAAUUGAAUUUUAUACCAAUGUUUAAACUUAAAUUGGGUGUUAGCUUGAGG	0.415
UAAGACUUAUUGAUCUGUGUGUAUCCCAGUGUUCCUCUGGGGUUCUGUCUAAACACCAACCAUCUUCUCUUGGAAUGGGCCCCAGGCAAGGCUUGCAGCAAUAUAGCCUG	0.446
CUGAGUAAAGUCCCCUUCCCUCCAGAGUGUCACAGAGACACUAGAAUGUCAGGUGCUCUUGUCUGAUGUAGAAGUCUUUGAUGAGGAAGCCUUCUUUCCCUUGGGGUCUC	0.91
AAUCCUGCCCUUCCCUCACAGAGCUGGAACUCCAAGCCUGGCCCCAAAGACCCUCCAUCACGAAGAGCACUUUACAGAUAAGAAUCUUCCUCCCCAGUUCUUCAUGCCUC	0.884
AUGUCUGCUUACUCACAAAAACAGAUAGUGGCUUAGGAAUUGUGGUUAUAUCCAGUUAUACAGGCGAGGAGGGGCUGUGGUAAAGACAGAUUAAAAGGAACAAAUGAAGU	1.03

Series 3
Target: Ras GTPase-activating protein-binding protein 1, full length (G3BP1, Homo sapiens, UniProt Q13283)
Sequence of UniProt Q13283 (whole entry, looked up): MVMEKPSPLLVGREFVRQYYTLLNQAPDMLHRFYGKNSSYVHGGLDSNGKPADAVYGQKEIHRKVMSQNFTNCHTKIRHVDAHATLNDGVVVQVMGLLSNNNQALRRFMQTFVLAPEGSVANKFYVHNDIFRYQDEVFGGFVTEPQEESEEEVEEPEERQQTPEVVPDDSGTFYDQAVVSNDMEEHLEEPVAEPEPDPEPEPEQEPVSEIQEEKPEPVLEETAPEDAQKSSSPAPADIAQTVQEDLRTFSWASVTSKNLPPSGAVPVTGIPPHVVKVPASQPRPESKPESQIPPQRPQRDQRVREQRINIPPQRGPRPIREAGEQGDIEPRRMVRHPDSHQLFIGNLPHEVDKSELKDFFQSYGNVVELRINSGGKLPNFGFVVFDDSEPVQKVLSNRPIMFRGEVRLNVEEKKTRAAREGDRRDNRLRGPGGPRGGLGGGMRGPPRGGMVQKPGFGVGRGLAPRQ
Technique: RNA Bind-n-Seq
Molecule type: RNA
Medium: in vitro
Concentration: 200 nM
Setting: whole 134-nt RNA, ends assumed
Added: 150 mM LiCl
Relative to: input library
Direction: higher = stronger binding
Library: 7-deaza-guanosine replaces G
All sequences stand within: GGGAGUUCUACAGUCCGACGAUC … UGGAAUUCUCGGGUGUCAAGG
Sequence	log2 enrichment
UUGAGAUUGGGUGGAUUCCUAUCAUCUGGAAUUCUGACUCCUCGGGUCUCCUUCUCUAGGUAGCCCAGCAGCAGUGAAGAUGCAGACUGA	-1.62
CUGUGCUACACAUCGUAUGUACCGAAUCGGGGUUUUUGGGGAAAAAAAGGGGUUUUUGGGGAAAGUAUUAUGUUACGCCGUUCGGAUCUG	-1.19
CCUGUGCUACACAUCGUAUGUACCGAAUCGGGGAAAGGGGUUUUUUUGGGGUUUUUGGGGAAAGUAUUAUGUUACGCCGUUCGGAUCUGC	0.34
CUCAAGUCCUGUGCUACACAUCGUAUGUACCGAAUCGGGCCGGCCGGGGCCGGGAAAGUAUUAUGUUACGCCGUUCGGAUCUGCACUUCC	0.646
UGGGAGGUGGAUUUUGUUUAUUUUUUUAGCACAUUUCCAGGGGUGGGAAUUUUUUUUUAAUAUGUGUCAUGAAUAAAGUUGUUUUUGAAA	0.0785
CAAGUCCUGUGCUACACAUCGUAUGUACCGAAUCGGGUGGGAAAGGGAAAAAGGGAAAGUAUUAUGUUACGCCGUUCGGAUCUGCACUUC	-0.259
ACCAUGCAGGUGGGCAUCUUUGGGAAGUGGGGCAAGGGGGGGAUAGGGAGGGGGGUAACACUUUGGGAACAGAAAGUCCCAGGUCGUUUC	0.108
CACAGACAACACGCACCCACACAGACACAGAGGGAAGGGGUUGGGAUGGGGACAGGGUGCACAGCAGGGCGGGGUAGGACCCCUGCCCCU	-0.971
GCAGGAAGUAAAAACAAAUGGAAAUGCUUCGGAUAGUGGCAGGGGUGGGGGUUGCUAAGGAAAGGGGGGGAUGGGAGUGGGUAAAGAGUU	-0.0405
AGUCCUGUGCUACACAUCGUAUGUACCGAAUCGGGUUUUGGGUUUUGGGUUUUGGGGAAAGUAUUAUGUUACGCCGUUCGGAUCUGCACU	0.00612
UCCUGUGCUACACAUCGUAUGUACCGAAUCGGAAAAAAGGGAAAAAAGGGAAAAAAGGGGAAAGUAUUAUGUUACGCCGUUCGGAUCUGC	-0.472

Series 4
Target: CCNE1, cyclin fold, Cln2 fusion (human)
Technique: yeast growth competition, sequencing
Medium: yeast
Setting: weak parent motif
Relative to: not given
Direction: higher = stronger binding
Starting sequence: LLGL2 docking peptide (human); KSLKKSLRQSFRR
Variant	normalised enrichment score
K1A	0.377
Q9A	1.02
S2A	0.606
S6A	-0.0147
R8A	0.825
L3A	0.417
R12A	0.528

Series 5
Target: Sal-like protein 4, full length isoform B (SALL4, Homo sapiens, UniProt Q9UJQ4-2, residues 1-616)
Technique: universal PBM
Molecule type: double-stranded DNA, one strand shown
Medium: in vitro
Concentration: not given
Setting: 8-mer, flanks averaged, mean of replicates
Direction: higher = stronger binding
Construct (chain): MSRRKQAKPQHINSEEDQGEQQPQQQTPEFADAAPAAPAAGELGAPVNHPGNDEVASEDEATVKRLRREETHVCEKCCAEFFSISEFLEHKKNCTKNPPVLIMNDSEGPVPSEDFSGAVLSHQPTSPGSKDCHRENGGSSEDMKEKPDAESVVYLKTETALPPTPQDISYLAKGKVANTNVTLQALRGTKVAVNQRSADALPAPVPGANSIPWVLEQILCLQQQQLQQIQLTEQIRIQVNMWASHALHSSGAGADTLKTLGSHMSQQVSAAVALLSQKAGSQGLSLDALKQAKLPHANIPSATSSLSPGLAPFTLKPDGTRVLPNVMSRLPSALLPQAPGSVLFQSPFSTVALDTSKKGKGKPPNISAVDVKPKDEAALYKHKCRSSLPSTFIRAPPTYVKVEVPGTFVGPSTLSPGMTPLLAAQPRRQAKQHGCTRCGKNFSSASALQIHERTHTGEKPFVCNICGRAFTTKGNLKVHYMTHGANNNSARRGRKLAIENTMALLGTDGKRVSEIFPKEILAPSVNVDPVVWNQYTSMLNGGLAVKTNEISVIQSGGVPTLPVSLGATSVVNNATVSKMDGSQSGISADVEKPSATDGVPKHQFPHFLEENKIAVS
Sequence	E-score
ATTCGGGA	-0.091
GACAAATC	0.0663
ACGAAGGC	-0.293
AACACGCG	-0.108
ACGGAGGA	-0.137
ATCCCCTC	-0.131
GAAGAAAC	-0.0851
GCGCTTGA	-0.0572
CCCTAACC	-0.226
AAAGGGAC	-0.123
GACCACAC	-0.152
CTGGAGCA	-0.193
CAGAGAAC	-0.0575
CGATACAA	0.138
CAACTAGC	-0.0232
CGGTATGC	-0.19
ACCCAGTA	-0.0636
GTAACAAA	0.215
ATCTGACG	-0.0942
ACATGCCC	-0.0196
CCACGAAA	-0.132
AGGTAAAC	0.127
CCTCTCAA	-0.0781
ACTATGCG	0.0161
AGACAAAT	0.253

Series 6
Target: Interferon regulatory factor 5, full length, phosphomimetic (IRF5, Homo sapiens, UniProt Q13568-2, residues 1-514, K96S/S451D/S453D/S456D/S462D)
Technique: protein-binding microarray
Molecule type: double-stranded DNA, one strand shown
Medium: in vitro
Concentration: 250 nM
Setting: 60-bp whole probe
Added: salmon DNA 0.4 mg/ml
Relative to: random background probes
Direction: higher = stronger binding
All sequences stand within: GCCTAGCAC … GTCTTGATTCGCTTGACGCTGCTG
Sequence	log fluorescence [z-score]
TCCCTATTATATATATCATAGTGCTAG	0.804
TTAGGTCTCGGTATCGGTTAGTGCTAG	5.44
TCATATATGAATATATAACTGTGCTAG	0.72
TTAGGACTGGACTATCGGTTGGTGCTA	4.87
GACAAACTGAGTATCGAGACGTGCTAG	2.11
GGCGATCTCAGACTGGAGACGTGCTAG	-0.815
TTAGGACTGGGGTACCGGTTAGTGCTA	-0.338
TTAGGACTAGGGTTTCGGTTAGTGCTA	6.06
TATAGGTTGTTTCTAATATTGTGCTAG	0.863
GACGGTTTCCTTATCCTCACGTGCTAG	1.01
TTAGATATCTTTTTCCTAATGTGCTAG	0.979
TTAGGACTGGGTATCGCTTAGTGCTAG	0.582
GACGGTTTCGGACTGTGGACGTGCTAG	3.77
TTAGGTATCGACACGGGGTTAGTGCTA	2.49
GACGGTATCGGTATCTGGACGTGCTAG	5.2
CAGCACAGCTGACTACAAGCGTGCTAG	-0.688
GACGGTTCCGTTTTCCTGACGTGCTAG	0.656
CTAGATTTCAGTATCGATTAGTGCTAG	8.35
GAGGATCTCAGTCTCGAGACGTGCTAG	-0.25
GGGCGGGTGCCAACTCTTAGGTGCTAG	-0.901
TCATCTTTAACATATTCTACTGTGCTA	0.884
TGGATACTTTGCTGAACATCGTGCTAG	-0.112
GACGTTATCGACTATCGGGACGTGCTA	3.83
TTAGGTGTCCTTTCCCTTTAGTGCTAG	0.437

Excerpt of the above (series 1):
Sequence	6-mer enrichment (R)
GCGGGG	8.28
UGCGAG	1.56
CUUGGA	0.778
CAGGGG	4.3
CACCCG	0.754
AGUACG	0.919
UAGCAG	0.887
GAUCGA	0.832
GACAGG	1.96
GCAUUG	0.85
CCUUGU	0.715
AUGUAU	0.833
